Results of several laboratories.
Compare with care: the assays were run in different laboratories. “And” joins repeats or separate records; there may be more than shown. ± gives the spread as reported.
CYP2C19: Cytochrome P450 2C19 (CYP2C19, Homo sapiens, UniProt P33261)
Sequence of UniProt P33261 (whole entry, looked up): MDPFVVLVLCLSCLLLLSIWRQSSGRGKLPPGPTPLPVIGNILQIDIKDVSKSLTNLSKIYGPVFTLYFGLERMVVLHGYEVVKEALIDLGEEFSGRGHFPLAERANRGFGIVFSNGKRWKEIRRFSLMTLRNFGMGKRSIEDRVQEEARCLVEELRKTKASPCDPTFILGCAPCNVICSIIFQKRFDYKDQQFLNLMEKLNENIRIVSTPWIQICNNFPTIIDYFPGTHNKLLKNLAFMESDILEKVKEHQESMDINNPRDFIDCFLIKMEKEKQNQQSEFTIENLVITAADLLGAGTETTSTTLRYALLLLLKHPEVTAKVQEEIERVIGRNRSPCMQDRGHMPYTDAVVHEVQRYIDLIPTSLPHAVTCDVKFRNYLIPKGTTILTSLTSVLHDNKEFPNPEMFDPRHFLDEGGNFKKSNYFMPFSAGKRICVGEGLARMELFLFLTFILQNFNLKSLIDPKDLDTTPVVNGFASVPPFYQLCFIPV
Sequence of UniProt P08684 (whole entry, looked up): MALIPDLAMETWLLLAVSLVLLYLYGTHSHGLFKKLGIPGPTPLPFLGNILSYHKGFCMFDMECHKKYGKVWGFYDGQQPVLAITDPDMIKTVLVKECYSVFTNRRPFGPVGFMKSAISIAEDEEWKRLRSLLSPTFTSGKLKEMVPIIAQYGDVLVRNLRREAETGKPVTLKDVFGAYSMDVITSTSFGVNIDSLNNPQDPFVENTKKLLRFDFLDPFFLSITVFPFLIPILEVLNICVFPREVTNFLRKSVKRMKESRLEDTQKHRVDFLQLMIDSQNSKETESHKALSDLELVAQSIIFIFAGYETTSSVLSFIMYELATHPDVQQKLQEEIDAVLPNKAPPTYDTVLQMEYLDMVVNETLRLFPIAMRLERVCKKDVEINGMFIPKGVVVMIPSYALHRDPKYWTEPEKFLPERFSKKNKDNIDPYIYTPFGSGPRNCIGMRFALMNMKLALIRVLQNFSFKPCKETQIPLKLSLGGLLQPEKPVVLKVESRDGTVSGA

Structure (SMILES) | tested on | test | system | setting | how to read | quantity | value
CC(C)NCC(O)c1ccc(NS(C)(=O)=O)cc1 (racemic) | – | – | male Hartley guinea pig, anaesthetized | intravenous, 1 mg/kg, baseline before infusion | – | QTc interval | 314 ± 0.4 ms
Cc1cc(N)c2c(OCC(C)(C)C(=O)NC(C)C)cccc2n1 | Salmonella typhimurium | reverse mutation, plate incorporation | TA100 | 500 µg/plate, with rat liver S9 | – | mean revertant colonies | 95 colonies/plate
CC[C@H]1[C@@H](O)[C@@H]2[C@H](CC[C@]3(C)[C@@H]([C@H](C)CCNC(=O)NS(=O)(=O)c4ccc(C(C)(C)C)cc4)CC[C@@H]23)[C@@]2(C)CC[C@@H](O)C[C@@H]12 | Cytochrome P450 3A4 (CYP3A4, Homo sapiens, UniProt P08684) | – | human, plasma | dose not given, compound alone | – | half-life geometric mean | 10.8 h
COc1cccc2c1C(=O)c1c(O)c3c(c(O)c1C2=O)C[C@@](O)(C(=O)CO)C[C@@H]3O[C@H]1C[C@H](N)[C@H](O)[C@H](C)O1 | BNL mouse liver cells | SRB | – | 100 µM, 10% fetal bovine serum | – | viability | 7.09%
COc1ccc2[nH]c([S+]([O-])Cc3ncc(C)c(OC)c3C)nc2c1 (centres unmarked) | CYP2C19 | – | human, plasma | oral, 20 mg, Day 14, together with: encorafenib at steady state | baseline: Day -7 | total AUClast decrease | 17%
NC(=O)C[C@H](N)C(=O)O | Bacillus subtilis | – | NCIB3610, MOPS medium | 1 mM, 1 mM equimolar amino acid mixture | – | uptake half-time | 4.5 h
Cl.[2H]C([2H])([2H])CC(=O)c1cnc(NC(=O)C2CC2)cc1Nc1cccc(-c2ncn(C([2H])([2H])[2H])n2)c1OC | – | geometric mean | human | oral, 100 mg single dose, fasted, liquid | – | elimination rate constant | 2.36e-05 s⁻¹
N[C@@H](CS)C(=O)O | Bacillus subtilis | – | 168, S7 medium | 1 mM, equimolar amino acid mixture | – | uptake half-time | 13.6 h
CC[C@@H](C)[C@@H](N)C(=O)OC[C@H]1O[C@@](C#N)(c2ccc3c(N)ncnn23)[C@H](O)[C@@H]1O | human respiratory syncytial virus | viral replication, viral protein ELISA | HEp-2, A2 | 5 days | baseline: CC50 over EC50 | selectivity index | > 59.2
O=C(CCCN1CCC(O)(c2ccc(Cl)cc2)CC1)c1ccc(F)cc1 | – | – | male Hartley guinea pig, anaesthetized | intravenous, 0.1 mg/kg, baseline before infusion | – | QTc interval | 332 ± 0.4 ms
COc1cc2ncnc(Nc3ccc(Oc4ccccc4)c(C)c3C)c2cc1OC.Cl | LoVo (KRAS G13D) | resazurin | – | 0.3 µM, 72 h, together with: trametinib 0 nM | baseline: DMSO | viability fraction | 0.732 and 1.01
NCCC(O)c1cccc(OC(=O)C2CCCCC2)c1.O=CO (centres unmarked) | porcine liver esterase | – | – | 99 µM, 15 min | baseline: time 0 min | compound remaining | 44.4%
N[C@@H](Cc1c[nH]cn1)C(=O)O | Bacillus subtilis | – | NCIB3610, MOPS medium | 1 mM, 1 mM equimolar amino acid mixture | – | uptake half-time | 17.1 h
C[C@]12CC[C@@H]3c4ccc(O)cc4C[C@@H](CCCCCCCCC[S+]([O-])CCCC(F)(F)C(F)(F)F)[C@H]3[C@@H]1CC[C@@H]2O (some centres unmarked) | LCC2 tamoxifen-resistant | CCK-8 | – | 20 nM | baseline: untreated | viability | 95.6% and 93.1% and 97.9%
Cc1noc(C)c1Cn1cc(N2C(=O)CN(Cc3cccc(O)c3)C2=O)cn1 | human blood lymphocytes | – | – | 400 µg/mL, 21 h | – | aberrant cells without gaps | 0%
Nc1nc(NS(=O)(=O)c2ccccc2)ncc1-c1nc2ccccc2s1 | BGM | cytotoxicity | – | 72 h | – | maximum non-toxic concentration | 100 µg/mL
O=C(Nc1nc2cccc(-c3ccc(CN4CCS(=O)(=O)CC4)cc3)n2n1)C1CC1 | – | – | rheumatoid arthritis patients | oral, 300 mg once daily, 4 weeks, regardless of relatedness | – | patients with triglycerides increased | 0%
Cc1ccc(S(=O)(=O)Nc2ncc(-c3nc4ccccc4s3)c(N)n2)cc1 | BGM | cytotoxicity | – | 72 h | – | maximum non-toxic concentration | 110 µg/mL
CC(C)[C@@H](N)C(=O)OC[C@H]1O[C@@](C#N)(c2ccc3c(N)ncnn23)[C@H](O)[C@@H]1O | human respiratory syncytial virus | viral replication, viral protein ELISA | HEp-2, A2 | 5 days | baseline: CC50 over EC50 | selectivity index | > 69.4
CC(C)(C(=O)N1CCOc2c(C#N)cncc2C1)C(F)F | – | item: ALT increased | human | oral, 15 mg twice daily, 14 days, multiple ascending dose | – | subjects with adverse event | 12.5%
Cc1cc(Nc2ccc(S(F)(F)(F)(F)F)cc2)n2nc(C(C)(F)F)nc2n1 | Plasmodium falciparum | 12-lead Holter ECG | human malaria patients | oral, 250 mg, QTc above 500 ms | – | patients with QTcF above threshold | 0%
N[C@@H](CCC(=O)O)C(=O)O | Bacillus subtilis | amino acid uptake | NCIB3610 | together with: equimolar amino acid mixture 1 mM | – | half-time of uptake | 17.7 h
COc1ccc2nc([S+]([O-])Cc3ncc(CO)c(OC)c3C)[nH]c2c1 (centres unmarked) | CYP2C19 | – | human, plasma | oral, 20 mg omeprazole, Day 1, together with: single dose encorafenib and binimetinib | baseline: 5-hydroxyomeprazole over omeprazole | metabolite to parent Cmax ratio | 0.244
NC(=O)CC[C@H](N)C(=O)O | Bacillus subtilis | – | NCIB3610, MOPS medium | 1 mM, 1 mM equimolar amino acid mixture | – | uptake half-time | 10.1 h
CCCC(CCC)C(=O)Oc1cccc(C(O)CCN)c1.O=CO (centres unmarked) | porcine liver esterase | – | – | 99 µM, 15 min | baseline: time 0 min | compound remaining | 95.1%
N[C@@H](CO)C(=O)O | Bacillus subtilis | – | NCIB3610, MOPS medium | 1 mM, 1 mM equimolar amino acid mixture | – | uptake half-time | 18.2 h
O=C1Cc2cc(CCN3CCN(c4nsc5ccccc45)CC3)c(Cl)cc2N1 | – | – | male Hartley guinea pig, anaesthetized | intravenous infusion, 0.3 mg/kg, 10 min infusion, post-infusion | – | QTc interval | 391 ± 0.4 ms
CC(C)C[C@H](N)C(=O)O | Bacillus subtilis | – | NCIB3610, MOPS medium | 1 mM, 1 mM equimolar amino acid mixture | – | uptake half-time | > 25 h
O=C(CCCN1CC=C(n2c(=O)[nH]c3ccccc32)CC1)c1ccc(F)cc1 | – | – | male Hartley guinea pig, anaesthetized | intravenous, 0.3 mg/kg, baseline before infusion | – | QTc interval | 324 ± 0.4 ms

Excerpt of the above:
Structure (SMILES) | tested on | test | system | setting | how to read | quantity | value
N[C@@H](Cc1c[nH]cn1)C(=O)O | Bacillus subtilis | – | NCIB3610, MOPS medium | 1 mM, 1 mM equimolar amino acid mixture | – | uptake half-time | 17.1 h
C[C@]12CC[C@@H]3c4ccc(O)cc4C[C@@H](CCCCCCCCC[S+]([O-])CCCC(F)(F)C(F)(F)F)[C@H]3[C@@H]1CC[C@@H]2O (some centres unmarked) | LCC2 tamoxifen-resistant | CCK-8 | – | 20 nM | baseline: untreated | viability | 95.6% and 93.1% and 97.9%
Cc1noc(C)c1Cn1cc(N2C(=O)CN(Cc3cccc(O)c3)C2=O)cn1 | human blood lymphocytes | – | – | 400 µg/mL, 21 h | – | aberrant cells without gaps | 0%
Nc1nc(NS(=O)(=O)c2ccccc2)ncc1-c1nc2ccccc2s1 | BGM | cytotoxicity | – | 72 h | – | maximum non-toxic concentration | 100 µg/mL
